Experimental data collected from several papers.
Parts stem from different laboratories: compare values within a part only. Values joined by “and” are separate records of one study, mostly repeats; a detail may differ.
UniProt Q92772, sequence (whole entry, looked up): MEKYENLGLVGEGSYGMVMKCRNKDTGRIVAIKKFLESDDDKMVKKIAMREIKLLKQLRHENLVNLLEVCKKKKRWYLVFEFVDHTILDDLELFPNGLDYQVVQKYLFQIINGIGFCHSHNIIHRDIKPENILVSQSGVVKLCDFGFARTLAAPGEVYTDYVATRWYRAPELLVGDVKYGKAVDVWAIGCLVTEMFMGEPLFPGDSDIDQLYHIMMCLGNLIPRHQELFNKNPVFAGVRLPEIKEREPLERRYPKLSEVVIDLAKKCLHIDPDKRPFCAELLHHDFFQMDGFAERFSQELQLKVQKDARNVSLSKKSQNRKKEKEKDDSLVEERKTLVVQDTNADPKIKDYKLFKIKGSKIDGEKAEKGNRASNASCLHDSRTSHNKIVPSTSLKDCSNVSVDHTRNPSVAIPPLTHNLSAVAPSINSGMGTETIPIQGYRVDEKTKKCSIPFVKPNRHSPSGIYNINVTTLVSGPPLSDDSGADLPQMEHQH
UniProt P10721, sequence (whole entry, unmodified, looked up): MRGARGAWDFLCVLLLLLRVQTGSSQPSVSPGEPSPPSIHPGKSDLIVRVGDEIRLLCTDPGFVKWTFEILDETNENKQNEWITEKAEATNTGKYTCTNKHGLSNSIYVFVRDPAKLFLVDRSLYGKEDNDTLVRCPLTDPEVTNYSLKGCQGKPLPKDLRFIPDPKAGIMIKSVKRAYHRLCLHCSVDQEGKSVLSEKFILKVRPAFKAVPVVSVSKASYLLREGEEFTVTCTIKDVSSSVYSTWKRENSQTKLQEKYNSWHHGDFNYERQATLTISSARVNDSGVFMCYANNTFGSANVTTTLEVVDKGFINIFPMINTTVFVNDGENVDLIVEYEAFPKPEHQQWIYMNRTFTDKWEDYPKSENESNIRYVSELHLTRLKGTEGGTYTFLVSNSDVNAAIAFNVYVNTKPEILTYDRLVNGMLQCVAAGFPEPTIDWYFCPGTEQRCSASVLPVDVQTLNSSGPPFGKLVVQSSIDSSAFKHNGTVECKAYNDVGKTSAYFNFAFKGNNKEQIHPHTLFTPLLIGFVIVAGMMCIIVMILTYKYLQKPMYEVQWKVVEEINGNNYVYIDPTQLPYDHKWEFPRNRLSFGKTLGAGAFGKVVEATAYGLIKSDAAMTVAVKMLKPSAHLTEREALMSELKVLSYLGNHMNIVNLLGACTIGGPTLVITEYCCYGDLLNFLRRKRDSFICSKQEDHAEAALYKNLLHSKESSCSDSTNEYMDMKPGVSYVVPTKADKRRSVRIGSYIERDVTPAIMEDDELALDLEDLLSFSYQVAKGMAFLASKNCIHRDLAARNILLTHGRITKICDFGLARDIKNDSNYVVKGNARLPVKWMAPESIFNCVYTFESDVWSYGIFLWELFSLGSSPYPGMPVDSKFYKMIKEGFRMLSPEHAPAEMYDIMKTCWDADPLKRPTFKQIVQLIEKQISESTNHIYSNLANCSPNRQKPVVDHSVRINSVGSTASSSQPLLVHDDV
UniProt Q16832, sequence (whole entry, looked up): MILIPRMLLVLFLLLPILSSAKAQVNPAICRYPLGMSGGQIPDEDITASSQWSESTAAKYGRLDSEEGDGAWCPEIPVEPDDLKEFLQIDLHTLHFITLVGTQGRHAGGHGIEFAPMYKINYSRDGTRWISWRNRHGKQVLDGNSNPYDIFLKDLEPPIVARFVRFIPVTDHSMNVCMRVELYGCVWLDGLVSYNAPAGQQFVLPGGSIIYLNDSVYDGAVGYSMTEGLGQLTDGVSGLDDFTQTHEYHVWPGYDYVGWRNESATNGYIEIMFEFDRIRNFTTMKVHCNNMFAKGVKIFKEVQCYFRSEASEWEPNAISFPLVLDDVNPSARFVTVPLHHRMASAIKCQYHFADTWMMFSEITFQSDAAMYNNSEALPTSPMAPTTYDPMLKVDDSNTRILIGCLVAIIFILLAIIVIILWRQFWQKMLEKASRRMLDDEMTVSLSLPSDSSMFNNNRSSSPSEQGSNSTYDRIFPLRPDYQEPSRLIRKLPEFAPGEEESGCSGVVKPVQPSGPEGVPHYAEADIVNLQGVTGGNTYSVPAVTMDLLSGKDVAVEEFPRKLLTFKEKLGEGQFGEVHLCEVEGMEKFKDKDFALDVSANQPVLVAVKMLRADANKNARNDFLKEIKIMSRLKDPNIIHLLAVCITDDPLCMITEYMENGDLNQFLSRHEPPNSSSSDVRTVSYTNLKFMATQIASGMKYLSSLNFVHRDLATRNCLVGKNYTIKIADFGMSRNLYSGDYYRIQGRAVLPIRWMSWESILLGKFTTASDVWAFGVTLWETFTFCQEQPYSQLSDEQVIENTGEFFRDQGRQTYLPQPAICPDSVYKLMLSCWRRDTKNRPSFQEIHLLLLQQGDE
UniProt P29323, sequence (whole entry, looked up): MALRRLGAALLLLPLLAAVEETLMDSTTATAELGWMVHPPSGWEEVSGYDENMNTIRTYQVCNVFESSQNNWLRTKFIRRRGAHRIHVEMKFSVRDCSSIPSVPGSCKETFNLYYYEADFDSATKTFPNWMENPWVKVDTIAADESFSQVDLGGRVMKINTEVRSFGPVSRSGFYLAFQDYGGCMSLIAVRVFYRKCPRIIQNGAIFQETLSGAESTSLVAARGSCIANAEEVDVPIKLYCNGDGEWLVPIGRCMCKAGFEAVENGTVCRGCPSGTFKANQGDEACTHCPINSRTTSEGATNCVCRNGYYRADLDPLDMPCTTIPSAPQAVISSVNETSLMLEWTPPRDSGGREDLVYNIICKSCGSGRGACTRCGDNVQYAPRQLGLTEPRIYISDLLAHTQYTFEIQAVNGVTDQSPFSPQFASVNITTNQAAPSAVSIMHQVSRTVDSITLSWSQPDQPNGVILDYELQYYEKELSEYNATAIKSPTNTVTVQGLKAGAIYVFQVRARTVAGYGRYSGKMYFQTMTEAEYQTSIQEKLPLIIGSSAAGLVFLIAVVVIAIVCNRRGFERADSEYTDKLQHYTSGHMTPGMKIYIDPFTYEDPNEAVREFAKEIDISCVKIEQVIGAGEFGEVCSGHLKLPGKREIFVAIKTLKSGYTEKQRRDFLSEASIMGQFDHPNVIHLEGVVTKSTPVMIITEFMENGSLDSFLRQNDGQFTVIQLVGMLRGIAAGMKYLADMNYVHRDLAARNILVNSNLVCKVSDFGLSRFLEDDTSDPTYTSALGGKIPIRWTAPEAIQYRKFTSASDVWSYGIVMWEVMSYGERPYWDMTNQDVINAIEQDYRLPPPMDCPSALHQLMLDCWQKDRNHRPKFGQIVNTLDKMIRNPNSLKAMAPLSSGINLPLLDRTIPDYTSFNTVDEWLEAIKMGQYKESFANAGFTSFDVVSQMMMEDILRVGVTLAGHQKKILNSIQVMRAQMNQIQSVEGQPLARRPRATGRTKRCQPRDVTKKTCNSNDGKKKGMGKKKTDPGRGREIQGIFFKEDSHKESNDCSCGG
UniProt P09619, sequence (whole entry, looked up): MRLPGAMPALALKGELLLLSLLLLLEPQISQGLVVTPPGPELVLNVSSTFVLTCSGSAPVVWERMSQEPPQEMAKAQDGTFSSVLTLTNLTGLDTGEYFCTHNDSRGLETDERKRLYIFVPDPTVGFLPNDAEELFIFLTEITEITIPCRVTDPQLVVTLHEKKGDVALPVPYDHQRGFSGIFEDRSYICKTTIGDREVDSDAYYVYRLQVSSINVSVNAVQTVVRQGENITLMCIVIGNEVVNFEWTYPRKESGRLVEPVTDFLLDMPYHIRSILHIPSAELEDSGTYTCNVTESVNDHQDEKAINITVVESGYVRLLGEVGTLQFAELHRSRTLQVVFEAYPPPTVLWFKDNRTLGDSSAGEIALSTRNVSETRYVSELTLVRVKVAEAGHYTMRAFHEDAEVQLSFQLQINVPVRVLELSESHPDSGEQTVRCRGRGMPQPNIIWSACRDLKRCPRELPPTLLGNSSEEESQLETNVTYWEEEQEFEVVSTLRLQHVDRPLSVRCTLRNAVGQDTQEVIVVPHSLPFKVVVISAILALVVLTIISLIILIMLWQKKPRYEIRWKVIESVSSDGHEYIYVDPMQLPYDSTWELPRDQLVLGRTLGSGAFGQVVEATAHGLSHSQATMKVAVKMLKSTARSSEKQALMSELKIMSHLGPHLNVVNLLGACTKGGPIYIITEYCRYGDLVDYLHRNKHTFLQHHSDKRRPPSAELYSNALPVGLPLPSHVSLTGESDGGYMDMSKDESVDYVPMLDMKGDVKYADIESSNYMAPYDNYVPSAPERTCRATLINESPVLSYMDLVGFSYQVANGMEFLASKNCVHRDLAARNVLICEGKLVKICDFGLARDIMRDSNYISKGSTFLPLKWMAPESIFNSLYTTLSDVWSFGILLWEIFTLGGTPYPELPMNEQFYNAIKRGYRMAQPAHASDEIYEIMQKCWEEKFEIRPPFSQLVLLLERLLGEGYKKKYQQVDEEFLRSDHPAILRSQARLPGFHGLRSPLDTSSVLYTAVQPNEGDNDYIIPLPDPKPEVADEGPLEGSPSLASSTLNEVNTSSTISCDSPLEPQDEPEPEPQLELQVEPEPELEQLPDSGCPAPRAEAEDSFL

Sample 1
Target: Calcium/calmodulin-dependent protein kinase type 1G (CAMK1G, Homo sapiens, UniProt Q96NX5)
UniProt Q96NX5, sequence (whole entry, looked up): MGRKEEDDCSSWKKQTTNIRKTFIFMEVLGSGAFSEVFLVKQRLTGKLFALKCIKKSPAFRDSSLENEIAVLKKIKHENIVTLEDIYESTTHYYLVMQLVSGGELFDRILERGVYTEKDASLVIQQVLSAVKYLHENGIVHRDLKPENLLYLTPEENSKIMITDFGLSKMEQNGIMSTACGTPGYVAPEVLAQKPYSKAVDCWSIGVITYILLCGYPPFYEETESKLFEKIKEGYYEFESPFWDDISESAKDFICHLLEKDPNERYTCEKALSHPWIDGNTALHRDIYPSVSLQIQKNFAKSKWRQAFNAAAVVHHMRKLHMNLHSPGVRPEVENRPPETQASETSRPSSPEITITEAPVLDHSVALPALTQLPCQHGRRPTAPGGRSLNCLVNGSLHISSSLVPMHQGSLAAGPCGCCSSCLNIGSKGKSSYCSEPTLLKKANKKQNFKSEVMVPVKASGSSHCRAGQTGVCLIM
Read-out: enzyme activity
Mode: inhibitor
Tested at: 0.5 µM
Relative to: control
| SMILES | remaining activity |
| --- | --- |
| Cc1cc2ncc(-c3ccccc3)nc2cc1C | 101% |
| O=C1c2ccccc2-c2n[nH]c3cccc1c23 | 101% |
| N#C/C(=C\c1ccc(O)c(O)c1)C(=O)NCc1ccccc1 | 98.7% |
| O=C(Nc1cccc(Nc2nccc(Nc3cccc(C(F)(F)F)c3)n2)c1)C1CC1 | 98.8% |
| Ic1cccc(CSc2nnc(-c3ccncc3)o2)c1 | 95.9% |
| O=C1C(Cl)=C(N2C(=O)CCC2=O)C(=O)c2ccccc21 | 98.2% |
| O=c1cc(-c2cccc3c2Sc2ccccc2S3)oc(N2CCOCC2)c1 | 99.4% |
| CCN(CC)CCNC(=O)c1c(C)[nH]c(/C=C2\C(=O)Nc3ccc(Cl)cc32)c1C | 49.5% |
| c1ccc(-c2cnc(Nc3ccc(OCCN4CCCC4)cc3)s2)cc1 | 101% |
| C[C@@H]1CCN(C(=O)CC#N)C[C@@H]1N(C)c1ncnc2[nH]ccc12 | 97.8% |
| Cc1nc2cc3nc(-c4cccs4)cnc3cc2n1C | 106% |
| Cc1cn(-c2cc(NC(=O)c3ccc(C)c(Nc4nccc(-c5cccnc5)n4)c3)cc(C(F)(F)F)c2)cn1 | 110% |
| COc1cc2ncnc(Nc3cccc(Cl)c3)c2cc1OC | 93.6% |
| COc1cc2c(cc1OC)-c1[nH]nc(Nc3cccc(F)c3)c1C2 | 101% |
| COc1cc2ncnc(Nc3ccc(O)c(Br)c3)c2cc1OC | 103% |
| c1ccc(-c2[nH]ncc2-c2ccnc3ccccc23)nc1 | 102% |
| CCOc1nc(NC(=O)Cc2cc(OC)ccc2OC)cc(N)c1C#N | 100% |
| Nc1cccc(-c2cc3c(Oc4cccc(O)c4)ncnc3[nH]2)c1 | 99% |
| CN([C@@H](Cc1ccc(OS(=O)(=O)c2cccc3cnccc23)cc1)C(=O)N1CCN(c2ccccc2)CC1)S(=O)(=O)c1cccc2cnccc12 | 93.6% |
| CN(C)C[C@H]1CCn2c(c(C3=C(c4cn(C)c5ccccc45)C(=O)NC3=O)c3ccccc32)C1 | 95.8% |
| N#Cc1c(NC(=O)c2cccc3ccccc23)sc2c1CCCC2 | 97.7% |
| Cn1nc2c3c(cccc31)C(=O)c1ccccc1-2 | 95.5% |
| CCN(CC)C(=O)c1ccc(Nc2nc(OCC3CCCCC3)c3[nH]cnc3n2)cc1 | 96.1% |

Sample 2
SMILES: COc1cc(-c2cn(C3CCc4ccccc4N(CC(F)(F)F)C3=O)nn2)ccc1-n1ccc(C)n1 (stereo not shown)
Technique: competition with immobilised ligand
Tested at: 1 µM
| target | test | remaining binding |
| --- | --- | --- |
| Tyrosine-protein kinase JAK3, JH1 (JAK3, Homo sapiens, UniProt P52333) | cell-free assay | 88% |
| Aurora kinase B (AURKB, Homo sapiens, UniProt Q96GD4) | cell-free assay | 89% |
| CDKL2 (Homo sapiens, UniProt Q92772) | binding | 91% |
| PIP4K2B (Homo sapiens, UniProt P78356) | cell-free assay | 65% |
| EGFR (Homo sapiens, UniProt P00533, A750P/del747-749) | cell-free assay | 100% |
| CDK14 (Homo sapiens, UniProt O94921) | cell-free assay | 100% |
| NEK4 (Homo sapiens, UniProt P51957) | cell-free assay | 100% |
| LTK (Homo sapiens, UniProt P29376) | cell-free assay | 100% |
| ERBB4 (Homo sapiens, UniProt Q15303) | cell-free assay | 100% |
| TNNI3K (Homo sapiens, UniProt Q59H18) | cell-free assay | 100% |
| ALK (Homo sapiens, UniProt Q9UM73, C1156Y) | cell-free assay | 100% |
| EPHB2 (Homo sapiens, UniProt P29323) | cell-free assay | 100% |
| KIT (Homo sapiens, UniProt P10721, D816H) | cell-free assay | 75% |
| MKNK1 (Homo sapiens, UniProt Q9BUB5) | cell-free assay | 78% |
| DDR2 (Homo sapiens, UniProt Q16832) | cell-free assay | 99% |
| PAK1 (Homo sapiens, UniProt Q13153) | cell-free assay | 100% |
| FER (Homo sapiens, UniProt P16591) | cell-free assay | 100% |
| MYLK2 (Homo sapiens, UniProt Q9H1R3) | binding | 73% |
| PRKX (Homo sapiens, UniProt P51817) | cell-free assay | 95% |
| Cyclin-dependent kinase 4, with cyclin D3 (CDK4, Homo sapiens, UniProt P11802) | cell-free assay | 86% |
| Ribosomal protein S6 kinase alpha-3, C-terminal kinase domain (RPS6KA3, Homo sapiens, UniProt P51812) | cell-free assay | 100% |
| FLT1 (Homo sapiens, UniProt P17948) | cell-free assay | 100% |
| IRAK3 (Homo sapiens, UniProt Q9Y616) | cell-free assay | 91% |
| PDGFRB (Homo sapiens, UniProt P09619) | cell-free assay | 100% |
| SGK2 (Homo sapiens, UniProt Q9HBY8) | cell-free assay | 100% |

Sample 3
SMILES: CCC(=O)N1CCN(c2nc(OC[C@@H]3CCCN3C)nc3c2CCN(c2cccc4cccc(Cl)c24)C3)C[C@@H]1CC#N
Target: GTPase HRas (HRAS, Homo sapiens, UniProt P01112)
Read-out: binding
Technique: NanoBRET
Cells: HEK293 (live)
Reading: lower = stronger binding
| setting | target engagement |
| --- | --- |
| 1.046 µM | 108% and 120% |
| 0.09151 µM | 96.3% and 101% and 100% |
| 1.523 µM | 132% and 156% and 121% |
| 0.5686 µM | 112% and 113% and 104% |

Sample 4
Structure (SMILES): CCOc1ccc(Nc2c3c(nc4ccccc24)CCC3)cc1
| cell line | test | setting | cytotoxicity |
| --- | --- | --- | --- |
| HEK293 | resazurin | 0.0166 µM, 10% serum | 3% and -2% |
| PMA-differentiated THP-1 macrophages |  | 0.08 µM, 64 h | -1% and 6% |
| RAW264.7 | resazurin | 1.66 µM | -3% and -2% |
| RAW264.7 | resazurin | 33.32 µM, 64 h | 81% and 84% |
| HEK293 | resazurin | 0.32 µM, 10% serum | 1% |
| J774.1 | resazurin | 0.0332 µM | 0% and -2% |
| HEK293 | resazurin | 0.066 µM, 10% serum | 1% and 3% |
| PMA-differentiated THP-1 macrophages |  | 80 µM, 64 h | 103% and 104% |
| J774.1 | resazurin | 16.66 µM, 64 h | 69% and 65% |
